Results collected from several papers.
Each numbered part is a random draw from the data of one study; scales do not carry over between parts. Substitutions count along the parent as printed.

Study 1
Target: Histone acetyltransferase KAT6A, winged helix 1, GST fusion (KAT6A, Homo sapiens, UniProt Q92794, residues 1-85)
Method: protein binding microarray
Form: double-stranded DNA, one strand shown
Matrix: in vitro
Concentration: not given
Setting: 8-mer, flanks averaged, mean of 2 arrays, mostly near background
Relative to: not given
Reading: higher = stronger binding
Target sequence (chain): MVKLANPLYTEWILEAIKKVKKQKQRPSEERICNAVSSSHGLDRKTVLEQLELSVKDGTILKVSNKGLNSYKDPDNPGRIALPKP
The E-score of `GCGTATAC` is reported as 0.239.
For `CGACTGAA`, the E-score was 0.0818.
`ACCGTGGG` has an E-score of 0.118.
`AGCGCAAC` has an E-score of 0.231.
`AGGAACTC` gave an E-score of -0.11.
With `AATATCGT` the E-score was -0.131.
The E-score of `ATAACTTG` is reported as -0.188.
For `AAGGCTTC`, the E-score was -0.096.
With `AAACCATG` the E-score was -0.0605.
With `AGCGATGC` the E-score was 0.192.
`AACACGCT` gave an E-score of 0.0335.
With `CTCCAACA` the E-score was -0.238.
The E-score of `ATATCCGC` is reported as 0.224.
`ACTCGTAT` gave an E-score of -0.202.
For `GGTGGTAC`, the E-score was -0.0557.
The E-score of `AGCCTGTG` is reported as -0.222.
For `CCAATAGG`, the E-score was -0.0888.
The E-score of `CGTACGAA` is reported as 0.0926.
The E-score of `ATCCGAAT` is reported as 0.0487.
For `CACGTCGA`, the E-score was -0.105.
`GGAAGTCC` gave an E-score of 0.00439.
With `CCAGCCGC` the E-score was 0.318.
For `GCTGAAAA`, the E-score was -0.124.
`AGAACCTA` has an E-score of -0.0862.
For `AATGGGCA`, the E-score was -0.219.

Study 2
Target: CCND2, cyclin fold, Cln2 fusion (human)
Method: yeast growth competition, sequencing
Matrix: yeast
Setting: weak parent motif
Relative to: not given
Reading: higher = stronger binding
Starting sequence: CDKN1A docking peptide (human); SKACRRLFGPVDS
Under “normalised enrichment score”, `STACRRLFGPVDS [K2T]` is recorded as 0.746.
`SPACRRLFGPVDS [K2P]` — result for “normalised enrichment score”: 0.957.
For `SVACRRLFGPVDS [K2V]`, “normalised enrichment score” read 0.559.
Under “normalised enrichment score”, `SKACRLLFGPVDS [R6L]` is recorded as 0.267.
`SKACRRLFGPADS [V11A]`: “normalised enrichment score” 0.428.
For `SKPCRRLFGPVDS [A3P]`, “normalised enrichment score” read 0.445.
`SKACRRCFGPVDS [L7C]`: “normalised enrichment score” -0.0364.
`SKADRRLFGPVDS [C4D]` — result for “normalised enrichment score”: -0.0239.
`SKAHRRLFGPVDS [C4H]`: “normalised enrichment score” 0.121.
For `SGACRRLFGPVDS [K2G]`, “normalised enrichment score” read 0.538.
`SKACNRLFGPVDS [R5N]` — result for “normalised enrichment score”: 0.0305.
`SKACRRLFGPVYS [D12Y]`: “normalised enrichment score” 0.0946.
Under “normalised enrichment score”, `SKQCRRLFGPVDS [A3Q]` is recorded as -0.0887.
For `SKAIRRLFGPVDS [C4I]`, “normalised enrichment score” read 0.535.
For `SKACYRLFGPVDS [R5Y]`, “normalised enrichment score” read 0.303.
`SKACRRLFLPVDS [G9L]` — result for “normalised enrichment score”: 0.371.
Under “normalised enrichment score”, `SKACRRLFSPVDS [G9S]` is recorded as 0.192.
Under “normalised enrichment score”, `SLACRRLFGPVDS [K2L]` is recorded as -0.008.
`SKACRRLFGPTDS [V11T]` — result for “normalised enrichment score”: 0.701.
`SKACVRLFGPVDS [R5V]`: “normalised enrichment score” 0.14.
`AKACRRLFGPVDS [S1A]`: “normalised enrichment score” 0.428.
`SKACRRTFGPVDS [L7T]` — result for “normalised enrichment score”: 0.293.
`SKICRRLFGPVDS [A3I]` — result for “normalised enrichment score”: 0.0966.
Under “normalised enrichment score”, `SKALRRLFGPVDS [C4L]` is recorded as -0.134.
For `SKACRRLFDPVDS [G9D]`, “normalised enrichment score” read 0.302.

Study 3
Target: ABI1, truncated, D143A, DHFR fusion (Arabidopsis thaliana)
Method: DHFR PCA, deep sequencing
Matrix: yeast
Setting: methotrexate growth selection, single substitutions
With: (+)-ABA 0.39 µM
Relative to: wild-type fitted maximum
Reading: higher = stronger binding
Starting sequence: PYL1, truncated, DHFR fusion (Arabidopsis thaliana); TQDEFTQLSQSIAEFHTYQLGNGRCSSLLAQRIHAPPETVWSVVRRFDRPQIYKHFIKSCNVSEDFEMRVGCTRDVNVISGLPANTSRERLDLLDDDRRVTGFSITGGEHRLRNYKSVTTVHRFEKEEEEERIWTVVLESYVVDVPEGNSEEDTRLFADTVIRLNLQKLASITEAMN
Under “relative binding score”, `L93Q` is recorded as 13%.
For `L138G`, “relative binding score” read -14.9%.
Under “relative binding score”, `E14K` is recorded as 21.8%.
`S11G` — result for “relative binding score”: 8.02%.
For `L82D`, “relative binding score” read 3.75%.
Under “relative binding score”, `Q51L` is recorded as -2.31%.
`S140V` — result for “relative binding score”: 3.92%.
Under “relative binding score”, `V62S` is recorded as -0.967%.
`V121C` — result for “relative binding score”: -0.307%.
`L169S` — result for “relative binding score”: -8.13%.
`E38P`: “relative binding score” 5.58%.
`L138E`: “relative binding score” -5.98%.
Under “relative binding score”, `T119E` is recorded as 5.49%.

Other studies, line by line
For `PhoQ, residues 284 288 289 292 302 303 AMDMFI`, the fold induction was 2.15 (PhoP, residues 12 14 15 18 19 HHYTI (Escherichia coli, UniProt P23836); Sort-seq, item: YFP reporter; E. coli; PhoQ-PhoP variant library, with: 10 µM Mg2+; relative to: high Mg2+ state, higher = stronger signaling).
